# Measured values collected from several papers.
# Each numbered part is a random draw from the data of one study; scales do not carry over between parts. Changes are numbered by the printed parent chain.

# Set 1 — method: DHFR PCA, deep sequencing; medium: yeast; with: (+)-ABA 710 µM; baseline: wild-type fitted maximum; direction: higher = stronger binding
# Target: ABI1, truncated, D143A, DHFR fusion (Arabidopsis thaliana)
# Setting: methotrexate growth selection, single substitutions
# Parent: PYL1, truncated, DHFR fusion (Arabidopsis thaliana); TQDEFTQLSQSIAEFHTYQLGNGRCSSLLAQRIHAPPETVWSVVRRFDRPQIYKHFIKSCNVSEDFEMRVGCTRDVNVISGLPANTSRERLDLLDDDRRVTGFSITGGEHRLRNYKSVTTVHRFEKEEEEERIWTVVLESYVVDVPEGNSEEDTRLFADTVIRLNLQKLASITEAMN
Change,relative binding score [%]
V145Q,78.7
K168N,110
T173N,83
V136D,77
Q19G,100
T1P,99.7
D96F,64.1
L94N,63.4
H16L,17.5
R163A,86.6
H55V,103
I57K,-7.68
L164V,101
R111P,56
E151K,103
Q7D,108
K168V,93.3
N149K,61.3
P37L,89.9
S80P,61.5
D48A,84.1
L93W,92.4
K126N,106
R113N,97.4
W134E,106

# Set 2 — method: RNA Bind-n-Seq; form: RNA; medium: in vitro; tested at: 200 nM; setting: whole 134-nt RNA, ends assumed; with: 150 mM LiCl; baseline: input library; direction: higher = stronger binding; each molecule: 7-deaza-guanosine replaces G
# Target: Fragile X messenger ribonucleoprotein 1, C-terminal low-complexity region (Fmr1, Mus musculus, UniProt P35922)
# Constant ends, left off below: GGGAGUUCUACAGUCCGACGAUC … UGGAAUUCUCGGGUGUCAAGG
Strand,log2 enrichment
AAGUCCUGUGCUACACAUCGUAUGUACCGAAUCGGGAAAGGGAAAAAAAGGGUGGGAAAGUAUUAUGUUACGCCGUUCGGAUCUGCACUU,-0.901
CAAGUCCUGUGCUACACAUCGUAUGUACCGAAUCGGUGGAAAAAGGAAAAAAAGGAAAGUAUUAUGUUACGCCGUUCGGAUCUGCACUUC,-0.899
UAGUUUAUGCCAACGUGACUUCAUUCAUACAGAUGAACCAAGGAUCGGGAUAGCAGUAUAAAAUUAGAAUCAAGACAGCUGACUGCUCAG,-3.75
UUGACAUGAAGACAAUGGAGACUGCAGAGAAACUGGCUAGAUUUGUUGCUCAGGUGGGACCAGAGAUCGAACAAUUCAGCAUAGAAAACA,-1.64
AAGUCCUGUGCUACACAUCGUAUGUACCGAAUCGGGAAAGGGUUUGGGUUUUUGGGAAAGUAUUAUGUUACGCCGUUCGGAUCUGCACUU,-1.95
AGUCCUGUGCUACACAUCGUAUGUACCGAAUCGGGGAAAAAGGAAAAAGGGAAAAAGGAAAGUAUUAUGUUACGCCGUUCGGAUCUGCAC,-0.718
UGCUGGUGAGCUGCUGCCUGGCAGGCCACGUCUGCGUGUGGGACGCGCAGACCGGGGAUUGCCUAACGCGCAUUCCGCGCCCAGGGUAGG,-2.12
CAAGUCCUGUGCUACACAUCGUAUGUACCGAAUCGGGGAAAGGAAAGGGAAAGGGAAAGUAUUAUGUUACGCCGUUCGGAUCUGCACUUC,-0.705

# Set 3 — target: CEP164, C-terminal peptide (human); method: DHFR complementation, deep sequencing; medium: yeast; baseline: wild type; direction: higher = weaker binding
# Setting: single substitutions, model-inferred values
# Parent: PDZK1, PDZ domain 2 (human); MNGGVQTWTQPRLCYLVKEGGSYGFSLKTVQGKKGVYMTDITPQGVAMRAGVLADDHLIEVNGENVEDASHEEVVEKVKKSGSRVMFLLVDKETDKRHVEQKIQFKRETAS; partner HNRVKVYRF
Change,binding free energy change
G35S,1.33 kcal/mol
E73Q,0.0978 kcal/mol
L13G,0.284 kcal/mol
D95Y,-0.408 kcal/mol
V85G,1.56 kcal/mol
K79G,0.924 kcal/mol
Y15A,0.212 kcal/mol
Q31A,-0.0663 kcal/mol
S83T,0.0211 kcal/mol
V5F,-0.0123 kcal/mol
L16W,1.15 kcal/mol
T9D,0.00628 kcal/mol
T9P,-0.0565 kcal/mol
N65F,0.475 kcal/mol

# Set 4 — method: protein-binding microarray; form: double-stranded DNA, one strand shown; medium: in vitro; tested at: not given; direction: higher = stronger binding
# Target: Max dimerization protein 1, bHLH-zipper, MAX partner unstated (MXD1, Homo sapiens, UniProt Q05195, residues 56-136)
# Setting: k-mer, scored over probes, only values ≥0.25
# Construct (chain): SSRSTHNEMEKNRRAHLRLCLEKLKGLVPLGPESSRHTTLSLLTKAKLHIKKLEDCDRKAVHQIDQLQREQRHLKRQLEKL
Strand,E-score
GCGTGTAC,0.383
ATGTGGAA,0.273
CCTCCCCG,0.319
GGCGTGGA,0.333
ATGCCGCA,0.252
CATGCCGA,0.387
ATGAGGTG,0.253
CATGCCGC,0.348
CATTGCAC,0.268
CATGTCTA,0.307
CATGGCAC,0.307
CGTGCCGC,0.268
CTCCCCAA,0.326
CGTGGAGA,0.316
CGGTGCAC,0.281
GCTTAACA,0.3
AAGCATGA,0.316
AGACCACG,0.308
AGCATGGA,0.409
GGGGGGCA,0.322
ACGCGGCG,0.262
CATGCTTC,0.419
CGTGTGAC,0.276

# Set 5 — target: CCNA2, cyclin fold, Cln2 fusion (human); method: yeast growth competition, sequencing; medium: yeast; setting: strong parent motif; baseline: not given; direction: higher = stronger binding
# Parent: BORA docking peptide (human); SSLRRKLFLDGNG
Change,normalised enrichment score
R5A,0.86
L7A,0.711
R5K L9F,2.08
G13A,1.98
L3A,4.99
N12A,2.48
F8L,1.23
G11A,2.6
L9A,0.695
R5K F8L,0.799
R5A L7A,-0.232

# Other studies, line by line
Substance,target,assay,system,conditions,scale,quantity,result
"PhoQ, residues 284 288 289 292 302 303 QWGLFV","PhoP, residues 12 14 15 18 19 YHFSH (Escherichia coli, UniProt P23836)","Sort-seq, measured: YFP reporter",E. coli,"PhoQ-PhoP variant library, with: 10 µM Mg2+","baseline: high Mg2+ state, higher = stronger signaling",fold induction,5.41

# Some of these lines once more (set 1):
Change,relative binding score [%]
D48A,84.1
R163A,86.6
D96F,64.1
K168N,110
R111P,56
R113N,97.4
W134E,106
T173N,83
T1P,99.7
I57K,-7.68
H55V,103
